Assay results from different studies.
Parts stem from different laboratories: compare values within a part only. Changes are numbered by the printed parent chain.

Study 1 — technique: protein-binding microarray; molecule type: double-stranded DNA, one strand shown; matrix: in vitro; concentration: not given; direction: higher = stronger binding
Target: Transcription factor SOX-2, HMG box (SOX2, Homo sapiens, UniProt P48431, residues 19-118)
Sequence of UniProt P48431 (19-118, looked up): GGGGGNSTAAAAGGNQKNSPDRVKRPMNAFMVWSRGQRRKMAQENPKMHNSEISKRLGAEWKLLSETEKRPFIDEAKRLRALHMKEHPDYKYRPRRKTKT
Setting: k-mer, scored over probes, only values ≥0.25
Oligonucleotide	E-score
AGTATTA	0.251
ATGATTG	0.337
GAATAAC	0.27
AAATAAT	0.406
TATTAAA	0.263
GAATGGA	0.299
AATGCGT	0.258
AAAATTA	0.299

Study 2 — target: CCNB1, cyclin fold, Cln2 fusion (human); technique: yeast growth competition, sequencing; matrix: yeast; setting: strong parent motif; baseline: not given; direction: higher = stronger binding
Starting sequence: viral docking peptide; KGVKRKLFAEDSS; partner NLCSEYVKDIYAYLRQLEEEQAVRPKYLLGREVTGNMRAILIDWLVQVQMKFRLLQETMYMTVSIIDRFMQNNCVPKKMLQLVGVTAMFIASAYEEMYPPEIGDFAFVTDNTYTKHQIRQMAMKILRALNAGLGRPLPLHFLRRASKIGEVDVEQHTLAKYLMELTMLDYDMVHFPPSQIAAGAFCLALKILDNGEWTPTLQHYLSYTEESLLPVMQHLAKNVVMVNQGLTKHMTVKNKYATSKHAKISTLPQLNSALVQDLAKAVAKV
Substitution	normalised enrichment score
KGVKRKLMAEDSS [F8M]	0.138
KGVKRKGFAEDSS [L7G]	0.172
KGVKRYLFAEDSS [K6Y]	0.322
KGVKRKLFTEDSS [A9T]	1.82
KGVKRKLFASDSS [E10S]	1.03
KGVVRKLFAEDSS [K4V]	5.02
KGVKWKLFAEDSS [R5W]	0.433
KGVKRRLFAEDSS [K6R]	3.24
KGVKRKVFAEDSS [L7V]	0.0597
KGVKRKLFAEDGS [S12G]	1.88
KGVKRKLFCEDSS [A9C]	2.3
KGVKRFLFAEDSS [K6F]	0.0488
KGSKRKLFAEDSS [V3S]	0.00887
KWVKRKLFAEDSS [G2W]	1.05
KGVKRILFAEDSS [K6I]	0.774
KGVKVKLFAEDSS [R5V]	1.11
KGIKRKLFAEDSS [V3I]	1.62
KGVKRKLFQEDSS [A9Q]	2.19
KGVKRKHFAEDSS [L7H]	0.472
KGFKRKLFAEDSS [V3F]	0.751
KGVKRKLDAEDSS [F8D]	-0.0765
KGPKRKLFAEDSS [V3P]	0.89
KMVKRKLFAEDSS [G2M]	1.65
KQVKRKLFAEDSS [G2Q]	2.46
KGVKRKLFAEDFS [S12F]	2.6

Study 3 — target: BATF2, bZIP domain (human); technique: DHFR protein complementation; matrix: yeast; baseline: wild-type JUN-FOS pair; direction: higher = stronger binding
Setting: single substitutions, most at no-binding floor
Starting sequence: JUN, bZIP domain (human); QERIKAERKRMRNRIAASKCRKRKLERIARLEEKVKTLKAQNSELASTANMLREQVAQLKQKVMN; partner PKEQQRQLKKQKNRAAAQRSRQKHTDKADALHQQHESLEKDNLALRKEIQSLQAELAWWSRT
Substitution	binding fitness [natural log]
Q58S	-0.246
V56N	-1.22
S47H	-0.135
A40T	-0.213
S43N	-0.278
T48P	-1.31
K39E	-0.335
T37G	-0.319

Study 4 — target: tungstate, free oxyanion; technique: microfluidic competitive inhibition; matrix: in vitro, cell-free expressed; concentration: not given; direction: lower = stronger binding
Setting: derived from inhibition constants, unchanged parent 2230 nM
Starting sequence: PafA, mature enzyme, eGFP fusion (Elizabethkingia meningoseptica, UniProt Q9KJX5); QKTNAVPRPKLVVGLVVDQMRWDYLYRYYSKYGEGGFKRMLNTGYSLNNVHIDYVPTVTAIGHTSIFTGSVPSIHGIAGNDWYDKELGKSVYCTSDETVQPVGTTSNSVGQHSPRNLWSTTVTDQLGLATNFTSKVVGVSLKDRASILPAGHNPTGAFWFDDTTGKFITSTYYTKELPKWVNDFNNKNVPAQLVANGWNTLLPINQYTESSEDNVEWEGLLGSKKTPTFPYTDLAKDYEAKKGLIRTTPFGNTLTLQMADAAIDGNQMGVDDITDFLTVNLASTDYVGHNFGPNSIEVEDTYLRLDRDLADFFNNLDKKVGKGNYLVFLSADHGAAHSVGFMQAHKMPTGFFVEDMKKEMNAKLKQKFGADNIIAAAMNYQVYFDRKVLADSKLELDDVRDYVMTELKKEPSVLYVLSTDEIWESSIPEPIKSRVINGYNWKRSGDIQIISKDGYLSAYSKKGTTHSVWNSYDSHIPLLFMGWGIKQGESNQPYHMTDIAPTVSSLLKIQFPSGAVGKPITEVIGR
Substitution	oxyanion analog dissociation constant [nM]
N49V	1710
T465G	1470
I499V	2430
R307G	2180
D53V	1180
F158G	1280

Study 5 — Substitution: T39S; technique: DHFR PCA, deep sequencing; matrix: yeast; baseline: wild-type fitted maximum; direction: higher = stronger binding
Target: ABI1, truncated, D143A, DHFR fusion (Arabidopsis thaliana)
Setting: methotrexate growth selection, single substitutions
Starting sequence: PYL1, truncated, DHFR fusion (Arabidopsis thaliana); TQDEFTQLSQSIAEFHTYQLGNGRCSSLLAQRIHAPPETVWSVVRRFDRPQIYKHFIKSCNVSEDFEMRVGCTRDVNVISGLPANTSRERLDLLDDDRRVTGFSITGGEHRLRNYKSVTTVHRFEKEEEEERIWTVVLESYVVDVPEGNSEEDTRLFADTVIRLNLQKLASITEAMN
with	relative binding score [%]
(+)-ABA 2500 µM	101
(+)-ABA 0.39 µM	16.1
(+)-ABA 710 µM	100
(+)-ABA 4.8 µM	54.1
(+)-ABA 0.0091 µM	6.71
(+)-ABA 58 µM	87.1

Repeated from above (study 3):
Substitution	binding fitness [natural log]
Q58S	-0.246
V56N	-1.22
S47H	-0.135
